Measured values pooled from the literature.
Numbered parts are unrelated; each lists some results of a single study.

Study 1 — method: universal PBM; molecule type: double-stranded DNA, one strand shown; sample: in vitro; concentration: 600 nM; reading: higher = stronger binding
Target: Sal-like protein 4, full length isoform A (SALL4, Homo sapiens, UniProt Q9UJQ4, residues 1-1053)
UniProt Q9UJQ4, sequence (whole entry, looked up): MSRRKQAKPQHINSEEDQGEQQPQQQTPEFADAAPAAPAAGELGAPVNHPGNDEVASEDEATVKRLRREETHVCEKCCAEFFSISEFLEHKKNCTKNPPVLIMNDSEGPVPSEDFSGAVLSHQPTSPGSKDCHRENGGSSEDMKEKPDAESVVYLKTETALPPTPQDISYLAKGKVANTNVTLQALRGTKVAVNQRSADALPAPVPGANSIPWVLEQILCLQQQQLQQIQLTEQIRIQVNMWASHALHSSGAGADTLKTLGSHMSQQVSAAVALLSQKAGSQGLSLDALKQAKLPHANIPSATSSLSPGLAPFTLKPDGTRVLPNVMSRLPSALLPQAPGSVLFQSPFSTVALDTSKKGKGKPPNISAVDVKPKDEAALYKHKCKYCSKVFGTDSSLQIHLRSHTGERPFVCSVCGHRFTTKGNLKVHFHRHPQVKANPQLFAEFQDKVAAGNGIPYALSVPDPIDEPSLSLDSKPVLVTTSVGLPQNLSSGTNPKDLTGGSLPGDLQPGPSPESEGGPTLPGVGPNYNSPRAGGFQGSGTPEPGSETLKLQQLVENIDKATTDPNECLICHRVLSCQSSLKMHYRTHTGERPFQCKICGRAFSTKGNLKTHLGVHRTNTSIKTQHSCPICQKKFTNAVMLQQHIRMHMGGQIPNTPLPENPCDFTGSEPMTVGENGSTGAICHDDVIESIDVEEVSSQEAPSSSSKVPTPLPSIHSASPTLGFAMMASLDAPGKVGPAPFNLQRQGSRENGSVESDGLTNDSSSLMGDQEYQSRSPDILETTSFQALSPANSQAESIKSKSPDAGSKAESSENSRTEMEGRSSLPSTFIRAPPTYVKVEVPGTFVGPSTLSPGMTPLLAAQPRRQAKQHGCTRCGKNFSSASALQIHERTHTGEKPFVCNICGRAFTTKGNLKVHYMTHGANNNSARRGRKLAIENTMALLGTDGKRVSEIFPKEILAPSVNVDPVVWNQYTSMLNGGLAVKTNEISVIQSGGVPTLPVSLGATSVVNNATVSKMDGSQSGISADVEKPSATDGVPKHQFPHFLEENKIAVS
Setting: 8-mer, flanks averaged, mean of replicates
The E-score of `CTACATGA` is reported as 0.111.
`CCACCATA` has an E-score of -0.0157.
With `ATCCCGAG` the E-score was -0.202.
With `CCATTCGC` the E-score was -0.279.
The E-score of `AGAAAGGG` is reported as 0.0342.
`CGAAATAC` has an E-score of 0.156.
With `AATGCCAG` the E-score was -0.02.
`CCTGGGGC` has an E-score of -0.449.
For `AGTTAGCG`, the E-score was 0.0218.
`ATCGCAAT` has an E-score of 0.137.

Study 2 — method: Sort-seq; item: YFP reporter; sample: E. coli; setting: PhoQ-PhoP variant library; added: 10 µM Mg2+; relative to: high Mg2+ state; reading: higher = stronger signaling
Molecule: PhoQ, residues 284 288 289 292 302 303 TGYLSA
PhoP, residues 12 14 15 18 19 QYCSL (Escherichia coli, UniProt P23836) — fold induction: 6.48.
PhoP, residues 12 14 15 18 19 STHWV (Escherichia coli, UniProt P23836) — fold induction: 4.15.
PhoP, residues 12 14 15 18 19 SHWTV (Escherichia coli, UniProt P23836) — fold induction: 16.7.

Study 3 — method: RNA Bind-n-Seq; molecule type: RNA; sample: in vitro; concentration: 20 nM; setting: 6-mer, flanks averaged, single round; added: 150 mM KCl; relative to: input library; reading: higher = stronger binding
Target: TAR DNA-binding protein 43, full length, His tag (TARDBP, Homo sapiens, UniProt Q13148, residues 1-414)
`UUCAGG`: “6-mer enrichment (R)” 0.893.
Under “6-mer enrichment (R)”, `CAAAAC` is recorded as 0.602.
`CGCUGC` — result for “6-mer enrichment (R)”: 0.791.
`GAAGUA` — result for “6-mer enrichment (R)”: 0.87.
For `UCACUC`, “6-mer enrichment (R)” read 0.548.
Under “6-mer enrichment (R)”, `UCCCAU` is recorded as 0.609.
For `CAUCAC`, “6-mer enrichment (R)” read 0.595.
`UAUAUU`: “6-mer enrichment (R)” 0.635.
Under “6-mer enrichment (R)”, `GGGAAC` is recorded as 2.11.
For `GUUACC`, “6-mer enrichment (R)” read 0.643.

Other studies, line by line — method: cross-linking MS
`ENO1 (Homo sapiens, UniProt P06733)`: cross-linked residues “K233 to S227” (EIF2B2 (Homo sapiens, UniProt P49770); cell fractions; added: DSSO).
`PSMC5 (Homo sapiens, UniProt P62195)`: interaction screen “cross-linked” (PSMD1 (Homo sapiens, UniProt Q99460); hits only).
Under cross-linked residues, `DDX50 (Homo sapiens, UniProt Q9BQ39)` is recorded as “K213 to D293” (TRIM5 (Homo sapiens, UniProt Q9C035); cell fractions; added: DMTMM).

Excerpt of the above (study 3):
Under “6-mer enrichment (R)”, `GGGAAC` is recorded as 2.11.
`GAAGUA` — result for “6-mer enrichment (R)”: 0.87.
`UAUAUU`: “6-mer enrichment (R)” 0.635.
`CGCUGC` — result for “6-mer enrichment (R)”: 0.791.
